Results pooled from the literature.
Compare with care: the assays were run in different laboratories. Numbers after ± are the reported error.

| SMILES | cell line | test | setting | scale | quantity | value |
| --- | --- | --- | --- | --- | --- | --- |
| COc1cc(CNC(=O)C[C@H](C)CCC=C(C)C)ccc1OCc1cn(-c2cccc(C(F)(F)F)c2)nn1 | UACC-257 melanoma cells | SRB | 10 µM, 48 h | – | growth percent | 104% |
| CCC(=C(c1ccc(Cl)cc1)c1ccc(OCCN(C)C)cc1)c1ccc(OC)cc1 | NCI-60 tumour cell lines | – | 10 µM, mean over cell lines | – | growth inhibition | 8.37% |
| CSC(=S)N/N=C(\C)c1ccc(S(=O)(=O)N2CCC(C)CC2)cc1 | HepG2 | flow cytometry | 3.31 µM, 72 h | – | cells in %G2/M | 34.9% |
| CCc1cnc(NC(=O)c2cc(S(=O)(=O)N3CCOCC3)ccc2N(C)CC2CC2)s1 | HCC827 and HCC827-GR | Western blot, item: PTK7, MET, STAT3 signalling | 10 µM, 24 h | – | PTK7 and MET N-glycosylation | decreased |
| O=[N+]([O-])c1ccc(NC2=N[N+](=Cc3cccs3)[Pd-]([Cl])([Cl])[S]2)cc1 | HEL human lung fibroblasts | altered cell morphology, microscopy | confluent cultures | – | cytotoxic concentration | > 100 µM |
| COc1cc(CNC(=O)C[C@H](C)CCC=C(C)C)ccc1OCc1cn(-c2ccccc2[N+](=O)[O-])nn1 | OVCAR-3 ovarian cancer cells | SRB | 10 µM, 48 h | – | growth percent | 80.3% |
| CCCC(CCC)C(=O)[O][Pt]([NH2])([NH2])([Cl])([Cl])[O]C(=O)c1ccccc1OC(C)=O | HEK293 and LoVo | cytotoxicity, MTT | – | reference: IC50 HEK293 over IC50 LoVo | selectivity index | 0.6 |
| COc1cc(CNC(=O)C[C@H](C)CCC=C(C)C)ccc1OCc1cn(-c2ccc([N+](=O)[O-])cc2)nn1 | OVCAR-8 ovarian cancer cells | SRB | 10 µM, 48 h | – | growth percent | 63.5% |
| CC(=O)OC[C@H]1O[C@@H](Sc2sc(C(=O)c3ccc(C)cc3)c(N)c2-c2nc3ccccc3s2)[C@H](OC(C)=O)[C@@H](OC(C)=O)[C@@H]1OC(C)=O | U-251 | SRB | 10 µM, 48 h | reference: untreated | growth | 59.5% |
| C[C@@H]1O[C@@H](O[C@H]2[C@H](O[C@H]3CC[C@@]4(C)C(CC[C@]5(C)C4CC=C4C6CC(C)(C)CC[C@]6(C(=O)O[C@@H]6O[C@H](CO)[C@@H](O)[C@H](O)[C@H]6O)CC[C@]45C)[C@]3(C)CO)OC[C@H](O)[C@@H]2O)[C@H](O)[C@H](O[C@@H]2OC[C@@H](O)[C@H](O)[C@H]2O)[C@H]1O (stereo partly shown) | HepG2, palmitic acid-induced insulin resistance | – | 15 µM, 24 h | – | glucose consumption | 12 ± 0.72 mM |
| CC(C)C[C@H](NC(=O)[C@H](CO)NC(=O)[C@H](C)NC(=O)[C@@H]1CCCN1C(=O)[C@H](Cc1c[nH]c2ccccc12)NC(=O)[C@H](CS)NC(=O)[C@H](CCC(=O)O)NC(=O)[C@H](CC(=O)O)NC(=O)[C@H](CC(N)=O)NC(=O)[C@H](CC(C)C)NC(=O)[C@@H](NC(=O)CNC(=O)[C@@H](NC(=O)[C@H](CO)NC(=O)[C@H](CC(C)C)NC(=O)[C@@H](NC(=O)[C@H](C)NC(=O)[C@H](C)NC(=O)CNC(=O)[C@H](CCC(=O)O)NC(=O)[C@H](CO)NC(=O)[C@@H]1CCCN1C(=O)[C@H](CC(C)C)NC(=O)[C@H](Cc1ccccc1)NC(=O)[C@H](CCC(N)=O)NC(=O)[C@H](CCC(=O)O)NC(=O)[C@H](CCCNC(=N)N)NC(=O)[C@H](CO)NC(=O)[C@@H](NC(=O)[C@H](C)NC(=O)[C@H](C)N)[C@@H](C)O)C(C)C)C(C)C)[C@@H](C)O)C(=O)O | MELOE-1(36-44)-specific HLA-A*0201 CD8 T cell clone | cross-presentation, cross-presentation by mature DC | – | reference: full-length MELOE-1 over compound EC50 | potency ratio | ~100 fold |
| CC(=O)N[C@H](C(=O)N[C@H](C(=O)N[C@@H](CCCNC(=N)N)C(=O)N1Cc2ccccc2C[C@H]1C(=O)N[C@@H](Cc1ccccc1)C(N)=O)C1CCCCC1)C(C)C | MBP-specific BC-3 T cells | Bio-Plex multiplex, item: IL-9 | 200 µg/mL, 24 h, with: MBP87-99 antigen | – | cytokine level | 27.3 ± 9.1 pg/mL |
| COc1cc(CNC(=O)C[C@H](C)CCC=C(C)C)ccc1OCc1cn(-c2ccccc2F)nn1 | MDA-MB-468 breast cancer cells | SRB | 10 µM, 48 h | – | growth percent | 57.7% |
| COc1ccc(-c2cn([C@H]3C[C@H](O)[C@@H](CO)O3)c3ncnc(N)c23)cc1 | HEK | cytotoxicity | – | – | EC50 | 104 ± 14 µM |
| COc1cc(CNC(=O)C[C@H](C)CCC=C(C)C)ccc1OCc1cn(-c2ccccc2)nn1 | UACC-257 melanoma cells | SRB | 10 µM, 48 h | – | growth percent | 101% |
| CC1(C)C(/C=C/C2=C(Cl)C(=C/C=C3/N(CCCCCC(=O)O)c4ccccc4C3(C)C)/C[N+](C)(C)C2)=[N+](CCCCCC(=O)O)c2ccccc21 | U-87 MG | organelle co-localization, confocal imaging | 20 µM, 24 h, lysosome | – | Pearson's correlation coefficient | 0.45 |
| O=C1Nc2ccc(Cl)cc2C1=Cc1c(Cl)[nH]c2c1ccc1ccccc12 | leukaemia subpanel of NCI-60 | – | 48 h | – | TGI | 7.24 µM |
| COc1cc(CNC(=O)C[C@H](C)CCC=C(C)C)ccc1OCc1cn(-c2ccccc2Cl)nn1 | SW-620 | SRB | 10 µM, 48 h | – | growth percent | 80.2% |
| CC(=C(c1ccc(O)cc1)c1ccc(Cl)cc1)c1ccc(Cl)cc1 | SW-620 | cell growth or viability, SRB | – | – | GI50 | 0.82 µM |

Some of these lines once more:
| SMILES | cell line | test | setting | scale | quantity | value |
| --- | --- | --- | --- | --- | --- | --- |
| COc1cc(CNC(=O)C[C@H](C)CCC=C(C)C)ccc1OCc1cn(-c2ccc([N+](=O)[O-])cc2)nn1 | OVCAR-8 ovarian cancer cells | SRB | 10 µM, 48 h | – | growth percent | 63.5% |
| CC(=O)OC[C@H]1O[C@@H](Sc2sc(C(=O)c3ccc(C)cc3)c(N)c2-c2nc3ccccc3s2)[C@H](OC(C)=O)[C@@H](OC(C)=O)[C@@H]1OC(C)=O | U-251 | SRB | 10 µM, 48 h | reference: untreated | growth | 59.5% |
| C[C@@H]1O[C@@H](O[C@H]2[C@H](O[C@H]3CC[C@@]4(C)C(CC[C@]5(C)C4CC=C4C6CC(C)(C)CC[C@]6(C(=O)O[C@@H]6O[C@H](CO)[C@@H](O)[C@H](O)[C@H]6O)CC[C@]45C)[C@]3(C)CO)OC[C@H](O)[C@@H]2O)[C@H](O)[C@H](O[C@@H]2OC[C@@H](O)[C@H](O)[C@H]2O)[C@H]1O (stereo partly shown) | HepG2, palmitic acid-induced insulin resistance | – | 15 µM, 24 h | – | glucose consumption | 12 ± 0.72 mM |
